Results from different studies.
Compare with care: the assays were run in different laboratories.
Target: Cytochrome P450 3A4 (CYP3A4, Homo sapiens, UniProt P08684)

For `C[C@H](NCc1ccc(-c2ccc(C(F)(F)F)cc2)cc1)C(N)=O`, the inhibition was 98.8% (P450-Glo luminescence; potassium phosphate buffer; 10 µM, pH 7.4, isoform 3A4).
`O=C(CN1C(=O)C2(CCN(C(=O)c3ccc4[nH]ncc4c3)CC2)c2ccccc21)NCC(F)(F)F` has an IC50 of greater than 50 µM (enzyme activity, inhibitor).
The remaining compound of `Cc1cc(-c2ccc3ccccc3c2)nnc1NCCN1CCN(C)CC1` is reported as 76% (substrate; recombinant enzyme; 100 nM, 1 h).
For `N#Cc1c(Cl)ccc2c1C1(CCN(C(=O)c3cnc4[nH]ncc4c3)CC1)C(=O)N2CC(=O)NCC(F)(F)F`, the IC50 was greater than 50 µM (enzyme activity, inhibitor).
`CCc1nnc(NS(=O)(=O)c2ccc(NC(=O)c3cccc4ccccc34)cc2)s1` has an inhibition of less than 10% (10 µM).
The inhibition of `CN[C@@H]1[C@H](O)[C@H](NC)[C@H]2O[C@]3(O)[C@H](O[C@@H]2[C@H]1O)O[C@H](C)C[C@H]3NC(=O)Cc1ccc(Cl)cn1` is reported as 2% (10 µM).
For `CNC(=O)C1CCCN(C(=O)C2CC3CCC2N3C(=O)[C@@H]2C[C@@H](O)CN2C(=O)NCc2cccc(Cl)c2F)C1` (mixture of isomers), the IC50 was greater than 50 µM (inhibitor; human liver microsomes; with: midazolam).
`Cc1[nH]nc2c1N=C(c1ccccc1Cl)c1cnc(N3CCOCC3)cc1N2` gave an IC50 of 4.42 µM (enzyme activity, inhibitor; human liver microsomes; with: midazolam).
`N#Cc1cccc2c1C1(CCN(C(=O)c3cnc4[nH]ncc4c3)CC1)C(=O)N2CC(=O)NCC(F)(F)F` gave an IC50 of 42 µM (enzyme activity, inhibitor).

Some of these lines once more:
`N#Cc1cccc2c1C1(CCN(C(=O)c3cnc4[nH]ncc4c3)CC1)C(=O)N2CC(=O)NCC(F)(F)F` gave an IC50 of 42 µM (enzyme activity, inhibitor).
